Measurements pooled from the literature.
Compare with care: the assays were run in different laboratories.
Organism: Candida albicans

| SMILES | test | test system | conditions | scale | measurement | value |
| --- | --- | --- | --- | --- | --- | --- |
| CC(C)[C@H]1NC(=O)[C@H](Cc2ccccc2)NC(=O)[C@@H](C(C)C)NC(=O)[C@@H](C)NC(=O)[C@H](CO)NC(=O)[C@@H](Cc2c(-c3ccc(-c4ccc5ccccc5c4)cc3)[nH]c3ccccc23)NC(=O)[C@@H](CO)NC1=O | broth dilution | – | – | – | MIC90 | > 50 µM |
| CCC(=O)c1ccc(OCC(O)CN2CCN(C(c3ccccc3)c3ccccc3)CC2)cc1 (stereo not drawn) | – | DSY654 (Cdr efflux pump knockout) | 24 h, 35 °C | – | MIC | 8 µg/mL |
| CC(C)[C@H]1NC(=O)[C@H](Cc2ccccc2)NC(=O)[C@@H](C(C)C)NC(=O)[C@@H](C)NC(=O)[C@H](CO)NC(=O)[C@@H](Cc2c(-c3ccc(-c4ccccc4)cc3)[nH]c3ccccc23)NC(=O)[C@@H](CO)NC1=O | broth dilution | – | – | – | MIC90 | > 50 µM |
| CCCCCCCCCCCC(=O)NCCCC[C@H](NC(=O)CCCCCCCCCCC)C(=O)N[C@@H](CCCCNC(=O)CCCCCCCCCCC)C(=O)NCC(=O)NCC(=O)NCC(=O)N[C@@H](CS)C(=O)N[C@@H](CCCNC(=N)N)C(=O)N[C@@H](CCCCN)C(=O)N1CCC[C@H]1C(=O)N[C@@H](CS)C(=O)N[C@@H](CCCNC(=N)N)C(=O)N[C@@H](CCCCN)C(=O)N1CCC[C@H]1C(N)=O | broth microdilution | SP 3876, RPMI-1640 | 48 h, 30 °C | – | MIC | > 128 µM |
| CCCCCCCCCCCC(=O)C(C)C(=O)N1CCC[C@H]1C(=O)NC(C)(C)C(=O)NC(C)(C)C(=O)NC(C)(C)C(=O)N[C@](C)(CC)C(=O)NCCC(=O)N[C@@H](C)C(=O)N[C@](C)(CC)C(=O)N[C@@H](C)C(=O)N[C@@H](CC(C)C)C(=O)N[C@](C)(CC)C(=O)NCCC(=O)N[C@@H](C)C(=O)N[C@](C)(CC)C(=O)NCCC(=O)N[C@@H](C)C(=O)NC(C)(C)C(=O)NC(C)(C)C(=O)NC(C)(C)C(=O)N[C@@H](C)C(=O)N[C@@H](CC(=O)O)C(=O)O (stereo partly drawn) | calcofluor white microscopy | ATCC 90028 | half MIC, 4 h, 30 °C, YPD medium | reference: DMSO vehicle, higher = more chitin | chitin level (calcofluor fluorescence) | 0.0333 a.u. |
| CC(C)C[C@H](NC(=O)[C@@H](N)CCCNC(=N)N)C(=O)N[C@@H](CCCNC(=N)N)C(=O)N[C@@H](Cc1c[nH]c2ccccc12)C(=O)N1CCC[C@H]1C(=O)N[C@@H](CCCNC(=N)N)C(=O)N1CCC[C@H]1C(=O)N[C@@H](CCCNC(=N)N)C(=O)N[C@@H](Cc1c[nH]c2ccccc12)C(=O)N[C@@H](CCCNC(=N)N)C(=O)N[C@@H](CCCCN)C(=O)N1CCC[C@H]1C(=O)N1CCC[C@H]1C(=O)O | growth | ATCC 10231, potato dextrose broth | 128 µM, 30 °C | – | inhibition | 1 fraction (0-1) |
| CCCCCCCC(=O)NCCCC[C@H](NC(=O)CCCCCCC)C(=O)N[C@@H](CCCCNC(=O)CCCCCCC)C(=O)NCC(=O)NCC(=O)NCC(=O)N[C@@H](CS)C(=O)N[C@@H](CCCNC(=N)N)C(=O)N[C@@H](CCCCN)C(=O)N1CCC[C@H]1C(=O)N[C@@H](CS)C(=O)N[C@@H](CCCNC(=N)N)C(=O)N[C@@H](CCCCN)C(=O)N1CCC[C@H]1C(N)=O | broth microdilution | 58288, RPMI-1640 | 48 h, 30 °C | – | MIC | 8 µM |
| CC(C)C[C@H](NC(=O)CN)C(=O)N[C@@H](CCCCN)C(=O)N[C@@H](CCCCN)C(=O)N[C@@H](CS)C(=O)NCC(=O)N[C@@H](CCCCN)C(=O)N[C@@H](CCCCN)C(=O)N[C@@H](CCCCN)C(=O)N[C@@H](CC(C)C)C(=O)N[C@@H](CCCCN)C(=O)N[C@@H](CCCCN)C(=O)N[C@@H](CS)C(=O)O | growth | ATCC 10231, potato dextrose broth | 128 µM, 30 °C | – | inhibition | 0.975 fraction (0-1) |
| CCCCCCCCCC(=O)NCCCC[C@H](NC(=O)CCCCCCCCC)C(=O)N[C@@H](CCCCNC(=O)CCCCCCCCC)C(=O)NCC(=O)NCC(=O)NCC(=O)N[C@@H](CS)C(=O)N[C@@H](CCCNC(=N)N)C(=O)N[C@@H](CCCCN)C(=O)N1CCC[C@H]1C(=O)N[C@@H](CS)C(=O)N[C@@H](CCCNC(=N)N)C(=O)N[C@@H](CCCCN)C(=O)N1CCC[C@H]1C(N)=O | broth microdilution | 14936, RPMI-1640 | 48 h, 30 °C | – | MIC | 16 µM |

Excerpt of the above:
| SMILES | test | test system | conditions | scale | measurement | value |
| --- | --- | --- | --- | --- | --- | --- |
| CCCCCCCCCCCC(=O)NCCCC[C@H](NC(=O)CCCCCCCCCCC)C(=O)N[C@@H](CCCCNC(=O)CCCCCCCCCCC)C(=O)NCC(=O)NCC(=O)NCC(=O)N[C@@H](CS)C(=O)N[C@@H](CCCNC(=N)N)C(=O)N[C@@H](CCCCN)C(=O)N1CCC[C@H]1C(=O)N[C@@H](CS)C(=O)N[C@@H](CCCNC(=N)N)C(=O)N[C@@H](CCCCN)C(=O)N1CCC[C@H]1C(N)=O | broth microdilution | SP 3876, RPMI-1640 | 48 h, 30 °C | – | MIC | > 128 µM |
